# Measurements from different studies.
# Compare with care: the assays were run in different laboratories. “And” joins repeats or separate records; there may be more than shown. ± gives the spread as reported.
# U2AF2: U2AF2 148-342 (Homo sapiens, UniProt P26368)
# Sequence of UniProt P26368 (whole entry, looked up): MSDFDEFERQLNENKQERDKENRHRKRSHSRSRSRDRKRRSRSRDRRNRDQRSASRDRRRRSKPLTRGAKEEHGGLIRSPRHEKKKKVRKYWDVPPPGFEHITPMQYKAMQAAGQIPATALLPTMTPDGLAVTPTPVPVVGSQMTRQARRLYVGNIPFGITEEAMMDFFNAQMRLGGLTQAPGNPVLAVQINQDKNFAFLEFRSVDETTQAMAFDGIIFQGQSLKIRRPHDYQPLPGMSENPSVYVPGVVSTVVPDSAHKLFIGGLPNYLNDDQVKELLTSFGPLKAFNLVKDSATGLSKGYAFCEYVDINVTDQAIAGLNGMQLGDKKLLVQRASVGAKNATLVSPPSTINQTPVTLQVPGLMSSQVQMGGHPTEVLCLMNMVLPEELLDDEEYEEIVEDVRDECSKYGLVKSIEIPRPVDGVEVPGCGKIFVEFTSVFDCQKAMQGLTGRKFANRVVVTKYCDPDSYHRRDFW
# B1: human RAB5C; sequence looked up; chain MAGRGGAARPNGPAAGNKICQFKLVLLGESAVGKSSLVLRFVKGQFHEYQESTIGAAFLTQTVCLDDTTVKFEIWDTAGQERYHSLAPMYYRGAQAAIVVYDITNTDTFARAKNWVKELQRQASPNIVIALAGNKADLASKRAVEFQEAQAYADDNSLLFMETSAKTAMNVNEIFMAIAKKLPKNEPQNATGAPGRNRGVDLQENNPASRSQCCSN
# B2: phosphofructokinase liver-type, human; sequence looked up; chain AAVDLEKLRASGAGKAIGVLTSGGDAQGMNAAVRAVTRMGIYVGAKVFLIYEGYEGLVEGGENIKQANWLSVSNIIQLGGTIIGSARCKAFTTREGRRAAAYNLVQHGITNLCVIGGDGSLTGANIFRSEWGSLLEELVAEGKISETTARTYSHLNIAGLVGSIDNDFCGTDMTIGTDSALHRIMEVIDAITTTAQSHQRTFVLEVMGRHCGYLALVSALASGADWLFIPEAPPEDGWENFMCERLGETRSRGSRLNIIIIAEGAIDRNGKPISSSYVKDLVVQRLGFDTRVTVLGHVQRGGTPSAFDRILSSKMGMEAVMALLEATPDTPACVVTLSGNQSVRLPLMECVQMTKEVQKAMDDKRFDEATQLRGGSFENNWNIYKLLAHQKPPKEKSNFSLAILNVGAPAAGMNAAVRSAVRTGISHGHTVYVVHDGFEGLAKGQVQEVGWHDVAGWLGRGGSMLGTKRTLPKGQLESIVENIRIYGIHALLVVGGFEAYEGVLQLVEARGRYEELCIVMCVIPATISNNVPGTDFSLGSDTAVNAAMESCDRIKQSASGTKRRVFIVETMGGYCGYLATVTGIAVGADAAYVFEDPFNIHDLKVNVEHMTEKMKTDIQRGLVLRNEKCHDYYTTEFLYNLYSSEGKGVFDCRTNVLGHLQQGGAPTPFDRNYGTKLGVKAMLWLSEKLREVYRKGRVFANAPDSACVIGLKKKAVAFSPVTELKKDTDFEHRMPREQWWLSLRLMLKMLAQYRISMAAYVSGELEHVTRRTLSMDKGF
# B3: human aldolase A; sequence looked up; chain PYQYPALTPEQKKELSDIAHRIVAPGKGILAADESTGSIAKRLQSIGTENTEENRRFYRQLLLTADDRVNPCIGGVILFHETLYQKADDGRPFPQVIKSKGGVVGIKVDKGVVPLAGTNGETTTQGLDGLSERCAQYKKDGADFAKWRCVLKIGEHTPSALAIMENANVLARYASICQQNGIVPIVEPEILPDGDHDLKRCQYVTEKVLAAVYKALSDHHIYLEGTLLKPNMVTPGHACTQKFSHEEIAMATVTALRRTVPPAVTGITFLSGGQSEEEASINLNAINKCPLLKPWALTFSYGRALQASALKAWGGKKENLKAAQEEYVKRALANSLACQGKYTPSGQAGAAASESLFVSNHAY
# B4: BAG2; sequence looked up; chain AQAKINAKANEGRFCRSSSMADRSSRLLESLDQLELRVEALREAATAVEQEKEILLEMIHSIQNSQDMRQISDGEREELNLTANRLMGRTLTVEVSVETIRNPQQQESLKHATRIIDEVVNKFLDDLGNAKSHLMSLYSACSSEVPHGPVDQKFQSIVIGCALEDQKKIKRRLETLLRNIENSDKAIKLLEHSKGAGSKTLQQNAESRFN
# B5: human radixin; sequence looked up; chain MPKPINVRVTTMDAELEFAIQPNTTGKQLFDQVVKTVGLREVWFFGLQYVDSKGYSTWLKLNKKVTQQDVKKENPLQFKFRAKFFPEDVSEELIQEITQRLFFLQVKEAILNDEIYCPPETAVLLASYAVQAKYGDYNKEIHKPGYLANDRLLPQRVLEQHKLTKEQWEERIQNWHEEHRGMLREDSMMEYLKIAQDLEMYGVNYFEIKNKKGTELWLGVDALGLNIYEHDDKLTPKIGFPWSEIRNISFNDKKFVIKPIDKKAPDFVFYAPRLRINKRILALCMGNHELYMRRRKPDTIEVQQMKAQAREEKHQKQLERAQLENEKKKREIAEKEKERIEREKEELMERLKQIEEQTIKAQKELEEQTRKALELDQERKRAKEEAERLEKERRAAEEAKSAIAKQAADQMKNQEQLAAELAEFTAKIALLEEAKKKKEEEATEWQHKAFAAQEDLEKTKEELKTVMSAPPPPPPPPVIPPTENEHDEHDENNAEASAELSNEGVMNHRSEEERVTETQKNERVKKQLQALSSELAQARDETKKTQNDVLHAENVKAGRDKYKTLRQIRQGNTKQRIDEFEAM
# Sequence of UniProt P21980 (whole entry, looked up): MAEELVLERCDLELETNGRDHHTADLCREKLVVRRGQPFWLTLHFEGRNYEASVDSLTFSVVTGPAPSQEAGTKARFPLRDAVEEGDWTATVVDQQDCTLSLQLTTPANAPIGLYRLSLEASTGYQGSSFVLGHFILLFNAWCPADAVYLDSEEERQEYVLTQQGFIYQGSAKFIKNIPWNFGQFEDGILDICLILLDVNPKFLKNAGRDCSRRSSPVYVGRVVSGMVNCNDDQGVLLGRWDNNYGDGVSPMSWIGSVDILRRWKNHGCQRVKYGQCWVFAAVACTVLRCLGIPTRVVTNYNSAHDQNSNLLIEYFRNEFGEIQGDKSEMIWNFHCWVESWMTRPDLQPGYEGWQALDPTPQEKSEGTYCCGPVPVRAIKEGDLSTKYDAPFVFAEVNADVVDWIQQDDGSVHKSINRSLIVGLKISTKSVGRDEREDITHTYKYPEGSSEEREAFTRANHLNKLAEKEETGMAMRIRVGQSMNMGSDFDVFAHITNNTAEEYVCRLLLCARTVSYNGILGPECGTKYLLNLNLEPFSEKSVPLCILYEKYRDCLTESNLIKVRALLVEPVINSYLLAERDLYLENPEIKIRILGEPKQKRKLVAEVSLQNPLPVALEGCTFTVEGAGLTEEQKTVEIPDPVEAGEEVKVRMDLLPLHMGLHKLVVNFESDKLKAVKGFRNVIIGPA
Substance,tested on,assay,test system,setting,how to read,measurement,value
ETDPIGYDK,Jurkat expressing engineered TCR,"NFAT-eGFP reporter, fluorescence microscopy",peptide,"concentration not given, HLA-A*01:01 on EL4 cells",,GFP-positive cells,0.395%
GGGAGCAGGAGAGAGGUCAGAUGAACGGUAAACGUGCAAGCCUUGGUAACGUUCCUAUGCGUGCUAGUGUGA (ssRNA; 2'-fluoro pyrimidines),"TGM2 2-687 (Homo sapiens, UniProt P21980)",SPR,RNA,together with: MgCl2 5 mM,higher = more binding,relative binding,-14.1 RU
ECDPIGYEY,Jurkat expressing engineered TCR,"NFAT-eGFP reporter, fluorescence microscopy",peptide,"concentration not given, HLA-A*01:01 on EL4 cells",,GFP-positive cells,0.583%
"Ac-LRKLRKRLLRDWLKAFYDKVAEKLKEAF-NH2 (N-acetyl, C-amide)",HUVEC,monocyte adhesion,peptide,"50 µg, together with: LPS",,inhibition,75%
B1 (human RAB5C),CYB5R4 knockout human cells,"PP6 interaction, 3xFLAG-PP6C IP-MS",,concentration not given,baseline: CYB5R4 KO over parental,log2 fold change,0.68
EIDPIGYNY,Jurkat expressing engineered TCR,"NFAT-eGFP reporter, fluorescence microscopy",peptide,"concentration not given, HLA-A*01:01 on EL4 cells",,GFP-positive cells,1.4%
B2,CYB5R4 knockout human cells,"PP6 interaction, 3xFLAG-PP6C IP-MS",,concentration not given,baseline: CYB5R4 KO over parental,log2 fold change,0.53
methyl-β-cyclodextrin,HEK293F cells expressing GlyT1 A563F,,,"3.5 mg/mL, unit not given",baseline: untreated,cell surface cholesterol,74.5 and 72.4 and 66.8
YLEIFQHSY,Jurkat expressing engineered TCR,"NFAT-eGFP reporter, fluorescence microscopy",peptide,"concentration not given, HLA-A*01:01 on EL4 cells",,GFP-positive cells,0.461%
MTVCNASQRQAHAQATAVSL,HCC15 lung squamous carcinoma,phage binding output/input,peptide,,baseline: control phage,selectivity ratio,14 ± 4.2
"cullin-4B, human",CYB5R4 knockout human cells,"PP4 interaction, 3xFLAG-PP4C IP-MS",,concentration not given,baseline: CYB5R4 KO over parental,log2 fold change,1.5
ESDPITSAY,Jurkat expressing engineered TCR,"NFAT-eGFP reporter, fluorescence microscopy",peptide,"concentration not given, HLA-A*01:01 on EL4 cells",,GFP-positive cells,2.99%
B3 (human aldolase A),CYB5R4 knockout human cells,"PP4 interaction, 3xFLAG-PP4C IP-MS",,concentration not given,baseline: CYB5R4 KO over parental,log2 fold change,0.44
YIDPIHLLY,Jurkat expressing engineered TCR,"NFAT-eGFP reporter, fluorescence microscopy",peptide,"concentration not given, HLA-A*01:01 on EL4 cells",,GFP-positive cells,0.429%
B4 (BAG2),CYB5R4 knockout human cells,"PP4 interaction, 3xFLAG-PP4C IP-MS",,concentration not given,baseline: CYB5R4 KO over parental,log2 fold change,2.2
YEQDPWGVKWWY,mouse bone marrow-derived macrophages,"qPCR, item: Cd206",peptide,"concentration not given, together with: IL-4",,mRNA level,decreased
CCCCUAAGU (ssRNA),U2AF2,sequencing of bound RNA,RNA,motif only,,Kd,1770 nM
TRAIL,EA.hy926,CellTiter-Glo,,concentration not given,,viability,31.6%
epoetin alfa,UT7/EPO,"phosphorylation, agonist, item: phospho-ERK1/2",,10 min,,EC50,0.007 nM
B5 (human radixin),CYB5R4 knockout human cells,"PP6 interaction, 3xFLAG-PP6C IP-MS",,concentration not given,baseline: CYB5R4 KO over parental,log2 fold change,0.71
Peginesatide,UT7/EPO,"tyrosine phosphorylation, LC-MS/MS phosphoproteomics, GluC, item: FRK tyrosine 497",,"10 nM, 15 min, together with: 10 U/mL EPO",baseline: vehicle,phosphorylation level,4.7 fold
GUUCCCGCU (ssRNA),U2AF2,sequencing of bound RNA,RNA,motif only,,Kd,3370 nM

# Excerpt of the above:
Substance,tested on,assay,test system,setting,how to read,measurement,value
B3 (human aldolase A),CYB5R4 knockout human cells,"PP4 interaction, 3xFLAG-PP4C IP-MS",,concentration not given,baseline: CYB5R4 KO over parental,log2 fold change,0.44
YIDPIHLLY,Jurkat expressing engineered TCR,"NFAT-eGFP reporter, fluorescence microscopy",peptide,"concentration not given, HLA-A*01:01 on EL4 cells",,GFP-positive cells,0.429%
B4 (BAG2),CYB5R4 knockout human cells,"PP4 interaction, 3xFLAG-PP4C IP-MS",,concentration not given,baseline: CYB5R4 KO over parental,log2 fold change,2.2
